Measured values pooled from the literature.
Every numbered part comes from another study and shows a few of its results, in no order. Changes are numbered by the printed parent chain.

Sample 1 — target: CCNF, cyclin fold, Cln2 fusion (human); technique: yeast growth competition, sequencing; sample: yeast; setting: strong parent motif; reference: not given; direction: higher = stronger binding; quantity: normalised enrichment score
Parent: E2F1 docking peptide (human); PPVKRRLDLETDH
Substitution = PPVKRRLSLETDH [D8S]; value = 5.06
Substitution = PQVKRRLDLETDH [P2Q]; value = 6.15
Substitution = PPVKRRLDLKTDH [E10K]; value = 4.43
Substitution = PPVKRRSDLETDH [L7S]; value = -0.594
Substitution = PPVKRRLDLDTDH [E10D]; value = 7.1
Substitution = PPVKRVLDLETDH [R6V]; value = 1.6
Substitution = PPVKRRLDLERDH [T11R]; value = 6.42
Substitution = PPVCRRLDLETDH [K4C]; value = 7.44
Substitution = PPVKRALDLETDH [R6A]; value = 2.63
Substitution = PVVKRRLDLETDH [P2V]; value = 4.85
Substitution = PPVKRRLDLETWH [D12W]; value = 7.52
Substitution = YPVKRRLDLETDH [P1Y]; value = 8.07
Substitution = PPVKRRLDLETFH [D12F]; value = 7.9
Substitution = DPVKRRLDLETDH [P1D]; value = 3.76
Substitution = PHVKRRLDLETDH [P2H]; value = 6.52
Substitution = PMVKRRLDLETDH [P2M]; value = 3.47
Substitution = PPVKRRLVLETDH [D8V]; value = 7.78
Substitution = PPVKRRLDLETGH [D12G]; value = 6.73

Sample 2 — target: FOSL2, bZIP domain (human); technique: DHFR protein complementation; sample: yeast; reference: wild-type JUN-FOS pair; direction: higher = stronger binding; quantity: binding fitness
Setting: single substitutions, most at no-binding floor
Parent: JUN, bZIP domain (human); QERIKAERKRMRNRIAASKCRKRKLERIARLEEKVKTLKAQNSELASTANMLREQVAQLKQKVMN; partner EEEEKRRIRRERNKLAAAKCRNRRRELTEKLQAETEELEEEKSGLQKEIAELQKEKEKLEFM
Substitution = K36E; value = 0.0228 natural log
Substitution = R30I; value = 0.0552 natural log
Substitution = I28F; value = -0.109 natural log
Substitution = E44K; value = 0.0192 natural log
Substitution = E44Q; value = -0.00503 natural log
Substitution = E33M; value = -0.033 natural log
Substitution = S47H; value = 0.0706 natural log
Substitution = A29T; value = 0.0472 natural log

Sample 3 — technique: DHFR PCA, deep sequencing; sample: yeast; with: (+)-ABA 17 µM; reference: wild-type fitted maximum; direction: higher = stronger binding; quantity: relative binding score
Target: ABI1, truncated, D143A, DHFR fusion (Arabidopsis thaliana)
Setting: methotrexate growth selection, single substitutions
Parent: PYL1, truncated, DHFR fusion (Arabidopsis thaliana); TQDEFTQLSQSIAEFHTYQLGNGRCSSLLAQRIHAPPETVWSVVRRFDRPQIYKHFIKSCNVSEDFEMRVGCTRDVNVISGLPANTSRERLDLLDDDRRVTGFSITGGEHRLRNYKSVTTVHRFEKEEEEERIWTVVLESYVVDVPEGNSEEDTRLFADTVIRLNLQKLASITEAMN; partner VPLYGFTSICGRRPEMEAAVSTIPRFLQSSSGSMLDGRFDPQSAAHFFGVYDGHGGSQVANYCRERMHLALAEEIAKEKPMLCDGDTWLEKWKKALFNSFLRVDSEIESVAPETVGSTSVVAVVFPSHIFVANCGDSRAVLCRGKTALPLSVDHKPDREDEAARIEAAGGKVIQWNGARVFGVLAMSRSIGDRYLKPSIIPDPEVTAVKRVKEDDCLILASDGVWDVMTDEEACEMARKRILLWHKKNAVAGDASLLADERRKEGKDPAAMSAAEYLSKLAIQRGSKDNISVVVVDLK
Substitution = Q31F; value = 21.5%
Substitution = V76H; value = -8.95%
Substitution = S117Q; value = 27.8%
Substitution = G21H; value = 84.3%
Substitution = C60Q; value = -5.53%
Substitution = Y18F; value = 59.5%
Substitution = S42G; value = 80.2%
Substitution = N149C; value = 30.2%
Substitution = F124W; value = 98.8%
Substitution = E125A; value = 90.2%
Substitution = E14Y; value = 36.1%
Substitution = I79R; value = 54.7%
Substitution = T119Y; value = -2.23%
Substitution = D65K; value = 79.8%
Substitution = V142P; value = -16.8%
Substitution = C72T; value = 67.2%
Substitution = S150Q; value = 38.2%
Substitution = D95W; value = 7.73%
Substitution = F47K; value = -7.93%

Sample 4 — technique: RNA Bind-n-Seq; form: RNA; sample: in vitro; tested at: 100 nM; reference: input RNA pool; direction: higher = stronger binding; quantity: bound/input enrichment
Target: RING finger protein unkempt homolog, zinc fingers 1-6, SBP tag (UNK, Homo sapiens, UniProt Q9C0B0, residues 30-357)
Chain of UniProt Q9C0B0 (30-357, looked up): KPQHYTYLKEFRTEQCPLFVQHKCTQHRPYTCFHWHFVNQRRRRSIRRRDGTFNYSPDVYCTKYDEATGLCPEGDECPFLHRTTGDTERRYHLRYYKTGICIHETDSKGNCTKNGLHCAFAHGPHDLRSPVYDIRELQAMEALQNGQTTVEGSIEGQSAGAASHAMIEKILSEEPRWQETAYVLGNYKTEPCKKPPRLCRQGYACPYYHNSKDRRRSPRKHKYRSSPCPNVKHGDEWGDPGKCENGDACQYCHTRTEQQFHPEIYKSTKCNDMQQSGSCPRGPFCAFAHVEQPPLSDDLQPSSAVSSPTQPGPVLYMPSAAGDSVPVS
Setting: RNA with constant flanks, vertebrate orthologous sites, ends assumed
Strand = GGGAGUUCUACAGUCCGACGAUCCUGUUGUUAAGCACUGUGUUCCAGACCGUGUCUGACUUUAGCGUAACCUAGGAGAUUUUAUAGUUUUAUUUUAAUGAAAUCCUGCUCGACGCAGAACAGCGGGGAGAGCAGUGUCUUCUGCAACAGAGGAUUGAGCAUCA; value = 1.31 ratio
Strand = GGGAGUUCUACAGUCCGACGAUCACACUUAUAUUGUGGCAUAUAGUCAACAUGGAAGUAGACCAGCUCUGCUGAUUGGAAAUUUAGAUUUUUUUAAUUAUGUACUGGGGACAGGUUUUUGUCGCUUUACAUUGCUUCCUAGUUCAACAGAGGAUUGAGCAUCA; value = 3.36 ratio
Strand = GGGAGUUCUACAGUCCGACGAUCUCAGUCCCCUGGGCCGGGACAGAUUUUUUUUAACGUCUUGAAACUUAAACUCUGUGCUUGUAGGAUACUGUAACCUUUUUGUCUUUUUUUUUUUUUUUUUUUUUAAACCUCCACCUCCAGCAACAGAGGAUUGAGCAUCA; value = 2.82 ratio
Strand = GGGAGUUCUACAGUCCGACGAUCGAGAUCUGGACCUUAUAGACUAACCAGGUUAUUAGCAGAAGUAAAACAAACAUCAGAUUAUAGCUAAGUGCAGCUAUGUACUAUCACUAGCAGCUAUAUAAGUAUUUAUAAAGAACAUUUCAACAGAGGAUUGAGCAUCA; value = 0.911 ratio
Strand = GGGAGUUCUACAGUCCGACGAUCUCAACUCAGGUUUUAUUUAUUUUGAAAUUAUCAAUUGUAUAAGUCUAACUUAUUGACAAACAUGAUGGGAUUUAAUUUUUUUUAUUGUUGAAACCUUAACAGGCAAUUCAUAUUCCCAGCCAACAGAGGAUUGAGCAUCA; value = 0.295 ratio
Strand = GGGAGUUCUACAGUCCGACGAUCUAAUUCAAUGGUUGAGGGUUCAGAACUCAAAAAGGUUCGCUCCAACUCUAGGAUUUAUCAUAGGUACUUUUUACUGGAUGCUGACAUGCAGAGCCUAAGGUGGGAGCCAUCUAAGAAGGACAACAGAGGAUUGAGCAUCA; value = 0.305 ratio
Strand = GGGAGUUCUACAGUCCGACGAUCAGUGCUGAAUAGUAUUAAACAUUUUCGUCUUCCUUUACCUUUUAUCCCCUACCUAAUAUCUAGUCUACUUUUUUAAAUUUCAAAUUUCACUGCUCUUUGAAUUGAUAAUUUCAAUUUUCACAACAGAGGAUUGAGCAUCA; value = 7.93 ratio
Strand = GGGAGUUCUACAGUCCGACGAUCAAUGGCUCUUGCUCCACUGAGAAGAGUAGAAAUAAGUCCCCCAAAUAUAAAACUCCUAAAUAACUAUUAGAAAAAUUAAAAUGUUUAAAUUUUGUAAAUCACCUGAUACCACUACACACCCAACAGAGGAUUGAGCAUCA; value = 2.23 ratio

Sample 5 — technique: protein-binding microarray; form: double-stranded DNA, one strand shown; sample: in vitro; tested at: 250 nM; setting: 60-bp whole probe; with: salmon DNA 0.4 mg/ml; reference: random background probes; direction: higher = stronger binding; quantity: log fluorescence; all sequences stand within: GCCTAGCAC … GTCTTGATTCGCTTGACGCTGCTG
Target: Interferon regulatory factor 5, full length, phosphomimetic (IRF5, Homo sapiens, UniProt Q13568-2, residues 1-514, K96S/S451D/S453D/S456D/S462D)
Strand = GAAGCTTCTTTTTTATTCTAGTGCTAG; value = 0.76 z-score
Strand = TACTAGAGTAAAACCCTGGCGTGCTAG; value = -0.12 z-score
Strand = TTAGATTTCAGCTTCGATTAGTGCTAG; value = 1.76 z-score
Strand = GACAGTTTCGGTATCGGGACGTGCTAG; value = 11 z-score
Strand = GACGGACTGGGTCTCGAGACGTGCTAG; value = -0.548 z-score
Strand = TCAAGTTTCACTGCTGCACTGTGCTAG; value = 4.06 z-score
Strand = TTAGATATCAGTTTCGATAAGTGCTAG; value = 9.78 z-score
Strand = GATGATTTCAGTTTCGAGACGTGCTAG; value = 7.27 z-score
Strand = TCTGTTTTTGCTTTCTTTATGTGCTAG; value = 2.93 z-score
Strand = TTAGCTATCCTTCTCCTTTAGTGCTAG; value = 0.354 z-score
Strand = GACGATTTCGGGTATCGATACGTGCTA; value = 7.33 z-score
Strand = TTAGGTTTAGGTATCGGTTAGTGCTAG; value = 5.67 z-score
Strand = TTATAACTGGGGTTTCGATTAGTGCTA; value = 6.18 z-score
Strand = GACGGTCTCGGTTGCGGGACGTGCTAG; value = 0.292 z-score
Strand = TTAGGTATCGACACTTGGTTAGTGCTA; value = 2.13 z-score
Strand = TTAGATCTCAGTTTCTATTAGTGCTAG; value = 3.45 z-score
Strand = GACGGTCCCGGTTTCGGGACGTGCTAG; value = 2.95 z-score
Strand = GACGAACTGGGGACTGGTGACGTGCTA; value = -0.4 z-score
Strand = TTAGGTCTCCTTCTCCTTTAGTGCTAG; value = -0.0412 z-score

Some of these lines once more (sample 3):
Substitution = I79R; value = 54.7%
Substitution = T119Y; value = -2.23%
Substitution = G21H; value = 84.3%
Substitution = Y18F; value = 59.5%
Substitution = F47K; value = -7.93%
Substitution = D65K; value = 79.8%
Substitution = E125A; value = 90.2%
Substitution = F124W; value = 98.8%
Substitution = V142P; value = -16.8%
Substitution = S150Q; value = 38.2%
Substitution = S117Q; value = 27.8%
